Assay results of several laboratories.
Protocols differ between the studies behind these lines. ± marks the error that the study gave. The star is where a group is joined.
Mode: substrate
Sequence of UniProt Q2CEE3 (whole entry, looked up): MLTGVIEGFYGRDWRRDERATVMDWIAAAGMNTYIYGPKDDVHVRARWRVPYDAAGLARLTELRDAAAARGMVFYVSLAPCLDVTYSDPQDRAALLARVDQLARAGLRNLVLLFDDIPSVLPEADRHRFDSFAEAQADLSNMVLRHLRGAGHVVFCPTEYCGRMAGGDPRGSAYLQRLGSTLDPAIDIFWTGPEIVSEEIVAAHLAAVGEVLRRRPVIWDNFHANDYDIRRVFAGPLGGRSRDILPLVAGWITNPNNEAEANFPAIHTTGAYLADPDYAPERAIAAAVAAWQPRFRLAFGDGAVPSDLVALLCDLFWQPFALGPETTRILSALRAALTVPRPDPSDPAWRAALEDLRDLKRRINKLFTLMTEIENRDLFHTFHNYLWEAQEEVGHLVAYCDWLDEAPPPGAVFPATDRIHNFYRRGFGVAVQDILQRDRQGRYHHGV
Sequence of UniProt P31570 (whole entry, looked up): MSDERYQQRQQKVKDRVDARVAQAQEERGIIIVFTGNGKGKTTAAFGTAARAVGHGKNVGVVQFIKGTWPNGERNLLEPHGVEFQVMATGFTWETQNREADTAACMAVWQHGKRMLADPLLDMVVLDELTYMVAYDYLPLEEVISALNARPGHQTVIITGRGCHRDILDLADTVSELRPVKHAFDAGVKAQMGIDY
Sequence of UniProt Q16549 (whole entry, looked up): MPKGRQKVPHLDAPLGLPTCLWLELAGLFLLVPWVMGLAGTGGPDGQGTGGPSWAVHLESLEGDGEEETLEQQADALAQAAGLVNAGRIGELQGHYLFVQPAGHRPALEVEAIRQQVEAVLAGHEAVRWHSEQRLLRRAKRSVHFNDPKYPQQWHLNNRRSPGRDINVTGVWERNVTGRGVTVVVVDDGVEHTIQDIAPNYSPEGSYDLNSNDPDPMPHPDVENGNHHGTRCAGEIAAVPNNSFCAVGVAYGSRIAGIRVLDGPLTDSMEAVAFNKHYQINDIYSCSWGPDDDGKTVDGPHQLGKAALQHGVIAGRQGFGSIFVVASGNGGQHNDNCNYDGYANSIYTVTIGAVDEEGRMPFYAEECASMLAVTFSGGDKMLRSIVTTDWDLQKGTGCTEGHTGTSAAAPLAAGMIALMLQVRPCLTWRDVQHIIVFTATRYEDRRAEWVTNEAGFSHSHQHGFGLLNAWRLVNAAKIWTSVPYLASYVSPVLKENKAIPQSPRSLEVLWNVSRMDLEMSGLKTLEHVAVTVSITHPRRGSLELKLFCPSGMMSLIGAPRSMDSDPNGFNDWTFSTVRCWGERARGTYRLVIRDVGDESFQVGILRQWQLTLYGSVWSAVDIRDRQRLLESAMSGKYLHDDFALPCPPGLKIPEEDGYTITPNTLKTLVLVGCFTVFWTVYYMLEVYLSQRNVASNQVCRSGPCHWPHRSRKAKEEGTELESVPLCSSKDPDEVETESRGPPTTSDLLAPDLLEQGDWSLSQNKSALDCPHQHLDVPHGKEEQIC
Sequence of UniProt K7WIZ6 (whole entry, looked up): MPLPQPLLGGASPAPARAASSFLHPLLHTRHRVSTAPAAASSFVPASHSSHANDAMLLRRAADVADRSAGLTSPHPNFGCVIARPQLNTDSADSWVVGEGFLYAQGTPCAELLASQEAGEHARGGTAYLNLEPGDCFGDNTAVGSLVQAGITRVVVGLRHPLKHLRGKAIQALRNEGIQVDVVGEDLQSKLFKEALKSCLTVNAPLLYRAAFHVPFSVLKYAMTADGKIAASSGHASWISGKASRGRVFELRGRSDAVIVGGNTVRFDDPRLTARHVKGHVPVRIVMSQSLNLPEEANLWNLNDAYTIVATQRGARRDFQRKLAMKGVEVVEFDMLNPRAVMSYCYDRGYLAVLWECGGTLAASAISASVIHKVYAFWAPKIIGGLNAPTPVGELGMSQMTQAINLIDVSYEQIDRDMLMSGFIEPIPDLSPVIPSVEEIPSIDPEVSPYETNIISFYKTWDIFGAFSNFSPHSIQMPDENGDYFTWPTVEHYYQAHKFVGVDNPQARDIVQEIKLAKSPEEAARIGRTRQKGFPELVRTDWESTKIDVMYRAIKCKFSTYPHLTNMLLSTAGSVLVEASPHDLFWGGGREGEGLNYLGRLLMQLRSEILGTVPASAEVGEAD
Sequence of UniProt P08244 (whole entry, looked up): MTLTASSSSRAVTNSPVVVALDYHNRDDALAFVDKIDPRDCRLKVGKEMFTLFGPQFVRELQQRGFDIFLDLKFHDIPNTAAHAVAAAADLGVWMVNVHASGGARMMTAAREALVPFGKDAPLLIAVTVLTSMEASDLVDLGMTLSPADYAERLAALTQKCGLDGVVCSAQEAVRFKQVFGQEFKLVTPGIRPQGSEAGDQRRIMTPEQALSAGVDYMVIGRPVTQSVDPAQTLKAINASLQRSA
Sequence of UniProt Q97SH8 (whole entry, looked up): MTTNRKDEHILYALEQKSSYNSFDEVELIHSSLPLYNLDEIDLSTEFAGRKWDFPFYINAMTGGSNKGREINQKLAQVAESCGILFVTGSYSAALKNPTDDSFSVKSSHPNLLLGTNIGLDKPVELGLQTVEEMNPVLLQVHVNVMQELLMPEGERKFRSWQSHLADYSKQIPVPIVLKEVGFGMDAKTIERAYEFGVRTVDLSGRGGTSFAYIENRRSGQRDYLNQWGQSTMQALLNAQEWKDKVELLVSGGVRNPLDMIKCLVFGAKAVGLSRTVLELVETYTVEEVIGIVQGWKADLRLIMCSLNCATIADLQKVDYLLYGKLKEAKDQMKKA
Sequence of UniProt P55210 (whole entry, looked up): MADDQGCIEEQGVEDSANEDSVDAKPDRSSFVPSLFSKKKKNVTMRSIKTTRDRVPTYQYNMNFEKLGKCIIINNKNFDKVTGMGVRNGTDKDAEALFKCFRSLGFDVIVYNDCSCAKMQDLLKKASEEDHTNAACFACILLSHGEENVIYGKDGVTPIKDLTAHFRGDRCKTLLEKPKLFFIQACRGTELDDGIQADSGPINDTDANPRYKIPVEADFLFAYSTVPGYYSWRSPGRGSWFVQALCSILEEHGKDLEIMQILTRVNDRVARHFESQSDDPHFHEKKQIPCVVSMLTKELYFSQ

Substance | target | test | setting | how to read | Km
CC(=O)N[C@H]1[C@H](Oc2ccc3c(C)cc(=O)oc3c2)O[C@H](CO)[C@@H](O)[C@@H]1O | Protein O-GlcNAcase (Oceanicola granulosus, UniProt Q2CEE3) | fluorimetric | pH 7.5, 37 °C | – | 2900 ± 200 µM
glycylsarcosine | PepTSt Streptococcus thermophilus | proton-driven proteoliposome uptake | pH 6.5 | – | 9300 µM
C/C1=C2/N[C@H]([C@H](CC(N)=O)[C@@]2(C)CCC(=O)NC[C@@H](C)OP(=O)(O)O[C@H]2[C@@H](O)[C@@H](n3cnc4cc(C)c(C)cc43)O[C@@H]2CO)[C@]2(C)N=C(/C(C)=C3N=C(/C=C4N=C1[C@@H](CCC(N)=O)C\4(C)C)[C@@H](CCC(N)=O)[C@]\3(C)CC(N)=O)[C@@H](CCC(N)=O)[C@]2(C)CC(N)=O.[Co] | Corrinoid adenosyltransferase CobA (btuR, Salmonella typhimurium, UniProt P31570) | – | pH 8, 37 °C, added: ATP | – | 4 ± 1 µM
O=C(O)c1c(F)c(=O)[nH]c(=O)n1[C@@H]1O[C@H](COP(=O)(O)O)[C@@H](O)[C@H]1O | Orotidine 5'-phosphate decarboxylase (pyrF, Escherichia coli, UniProt P08244) | enzyme activity | pH 7.1, 25 °C | lower limit | > 200 µM
Oc1ccccc1O | polyphenol oxidase (Malus domestica) | – | pH 6.8, 25 °C, enzyme pretreated 65 °C 30 min | – | 23800 ± 3100 µM
Ac-QDEVD-pNA (N-acetyl, C-pNA; pNA = O=[N+]([O-])c1ccc(N*)cc1) | Caspase-7 (CASP7, Homo sapiens, UniProt P55210) | substrate hydrolysis, colorimetric | pH 7.5 | – | 51 ± 3 µM
Nc1c(N[C@@H]2O[C@H](COP(=O)(O)O)[C@@H](O)[C@H]2O)[nH]c(=O)[nH]c1=O (mixture of isomers) | Riboflavin biosynthesis protein PYRR, chloroplastic, COG domain (PYRR, Zea mays, UniProt K7WIZ6) | HPLC-UV | pH 8.0, 22 °C, added: 5 mM MgCl2 | – | 1080 ± 110 µM
Nc1ncnc2c1ncn2[C@@H]1O[C@H](COP(=O)(O)OP(=O)(O)OP(=O)(O)O)[C@@H](O)[C@H]1O | hexokinase (Saccharomyces cerevisiae) | ADP generation | pH 7.5, 20 °C, added: D-glucose 2 mM | – | 75 ± 2 µM
CCCCCCCCCCCCCCCC(=O)Oc1ccc([N+](=O)[O-])cc1 | lipase Bacillus amyloliquefaciens | – | pH 7, 30 °C | – | 4340 µM
OO | ancestral DyP peroxidase R390A | peroxidase activity | pH 3.0, 25 °C, added: ABTS 50 µM | – | 4180 µM
flavin mononucleotide | Isopentenyl-diphosphate delta-isomerase (fni, Streptococcus pneumoniae serotype 4, UniProt Q97SH8) | – | pH 7.0, 37 °C, added: 150 µM IPP and NADPH | – | 0.343 ± 0.044 µM
Cc1cc(=O)oc2cc(NC(=O)[C@H](CCCNC(=N)N)NC(=O)[C@H](CCCNC(=N)N)NC(=O)[C@@H](NC(=O)[C@H](CCCNC(=N)N)NC(=O)OC(C)(C)C)C(C)C)ccc12 | Proprotein convertase subtilisin/kexin type 7 (Homo sapiens, UniProt Q16549) | fluorogenic | pH 7.5, 25 °C, added: Boc-RVRR-AMC | – | 27 ± 3 µM

Repeated from above:
Substance | target | test | setting | how to read | Km
C/C1=C2/N[C@H]([C@H](CC(N)=O)[C@@]2(C)CCC(=O)NC[C@@H](C)OP(=O)(O)O[C@H]2[C@@H](O)[C@@H](n3cnc4cc(C)c(C)cc43)O[C@@H]2CO)[C@]2(C)N=C(/C(C)=C3N=C(/C=C4N=C1[C@@H](CCC(N)=O)C\4(C)C)[C@@H](CCC(N)=O)[C@]\3(C)CC(N)=O)[C@@H](CCC(N)=O)[C@]2(C)CC(N)=O.[Co] | Corrinoid adenosyltransferase CobA (btuR, Salmonella typhimurium, UniProt P31570) | – | pH 8, 37 °C, added: ATP | – | 4 ± 1 µM
